# Assay results from different studies.
# Numbered parts are unrelated; each lists some results of a single study. Positions count from the first letter of the parent shown.

# Series 1
# Target: Histone acetyltransferase KAT6A, both winged helices, GST fusion (KAT6A, Homo sapiens, UniProt Q92794, residues 1-181)
# Technique: protein binding microarray
# Molecule type: double-stranded DNA, one strand shown
# Sample: in vitro
# Concentration: not given
# Notes: 8-mer, flanks averaged, mean of 2 arrays, mostly near background
# Baseline: not given
# Direction: higher = stronger binding
# Construct (chain): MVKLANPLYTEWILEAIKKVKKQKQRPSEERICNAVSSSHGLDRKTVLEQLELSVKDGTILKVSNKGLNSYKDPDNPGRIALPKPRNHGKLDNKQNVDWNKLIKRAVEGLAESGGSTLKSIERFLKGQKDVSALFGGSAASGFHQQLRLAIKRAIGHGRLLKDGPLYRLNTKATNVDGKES
Sequence,E-score
AGGCACCT,-0.0729
GGTATATA,-0.0427
GGATCCCA,-0.099
AAGATGCA,-0.219
CACTGTGG,-0.149

# Series 2
# Target: Ras GTPase-activating protein-binding protein 1, full length (G3BP1, Homo sapiens, UniProt Q13283)
# UniProt Q13283, sequence (whole entry, looked up): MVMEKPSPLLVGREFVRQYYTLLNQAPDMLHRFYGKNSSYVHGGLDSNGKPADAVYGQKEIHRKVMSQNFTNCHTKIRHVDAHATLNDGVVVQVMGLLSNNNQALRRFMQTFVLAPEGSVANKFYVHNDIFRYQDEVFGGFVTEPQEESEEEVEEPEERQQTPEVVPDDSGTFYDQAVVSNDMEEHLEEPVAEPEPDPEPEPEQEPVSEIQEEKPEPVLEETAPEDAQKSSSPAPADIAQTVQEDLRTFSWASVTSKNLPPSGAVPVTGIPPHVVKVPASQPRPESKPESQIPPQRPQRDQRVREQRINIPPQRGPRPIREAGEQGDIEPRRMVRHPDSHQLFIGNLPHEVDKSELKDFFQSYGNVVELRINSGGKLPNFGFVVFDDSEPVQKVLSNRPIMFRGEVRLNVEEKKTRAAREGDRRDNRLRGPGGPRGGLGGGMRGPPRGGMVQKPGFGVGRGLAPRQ
# Technique: RNA Bind-n-Seq
# Molecule type: RNA
# Sample: in vitro
# Concentration: 200 nM
# Notes: whole 134-nt RNA, ends assumed
# Together with: 150 mM LiCl
# Baseline: input library
# Direction: higher = stronger binding
# All molecules: 7-deaza-guanosine replaces G
# Constant ends, left off below: GGGAGUUCUACAGUCCGACGAUC … UGGAAUUCUCGGGUGUCAAGG
Sequence,log2 enrichment
CUCAAGUCCUGUGCUACACAUCGUAUGUACCGAAUCGGGGCGGGGCGGCGGGGAAAGUAUUAUGUUACGCCGUUCGGAUCUGCACUUCCA,-0.348
AAGUCCUGUGCUACACAUCGUAUGUACCGAAUCGGGAAAAAAAGGGUGGGUUUGGGAAAGUAUUAUGUUACGCCGUUCGGAUCUGCACUU,-1.65
UAACUUUAGAGGAGGAUCUGAUGGAUAUGGCAGUGGACGUGGAUUUGGGGAUGGCUAUAAUGGGUAUGGAGGAGGACCUAGAGGUGGCAA,-0.175
GUCCUGUGCUACACAUCGUAUGUACCGAAUCGGGGAAAAGGGGAAAAGGGGAAAAGGGAAAGUAUUAUGUUACGCCGUUCGGAUCUGCAC,0.125
UAACUUUAGAGGAGGAUCUGAUGGAUAUGGCAGUGGACGUGGAUUUGGGGAUGGCUAUAAUGGGUAUGUAGGAGGACCUGGAGGUGGCAA,-0.00218

# Series 3
# Target: CCNE1, cyclin fold, Cln2 fusion (human)
# Technique: yeast growth competition, sequencing
# Sample: yeast
# Notes: strong parent motif
# Baseline: not given
# Direction: higher = stronger binding
# Starting sequence: BRCA2 docking peptide (human); PSIKRNLLNEFDR; partner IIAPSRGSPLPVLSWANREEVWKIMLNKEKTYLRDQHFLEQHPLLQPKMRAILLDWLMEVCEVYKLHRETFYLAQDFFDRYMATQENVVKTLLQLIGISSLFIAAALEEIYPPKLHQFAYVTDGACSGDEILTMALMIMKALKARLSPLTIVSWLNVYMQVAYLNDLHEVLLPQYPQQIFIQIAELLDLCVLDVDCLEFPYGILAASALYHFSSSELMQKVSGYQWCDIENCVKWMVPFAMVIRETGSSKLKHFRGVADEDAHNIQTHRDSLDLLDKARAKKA
Variant,normalised enrichment score
PSIKRNLLNEFDS [R13S],2.58
NSIKRNLLNEFDR [P1N],2.1
PSIKRNLLNEHDR [F11H],0.128
PSIKRNLLNTFDR [E10T],0.021

# Further values, each from its own experiment
Molecule,target,assay,system,setting,how to read,quantity,value
"PhoQ, residues 284 288 289 292 302 303 ASVMEA","PhoP, residues 12 14 15 18 19 LWHVM (Escherichia coli, UniProt P23836)","Sort-seq, item: YFP reporter",E. coli,"PhoQ-PhoP variant library, together with: 10 µM Mg2+","baseline: high Mg2+ state, higher = stronger signaling",fold induction,28.4
